{"data": "Experimental data gathered from unrelated publications", "CDK5 with p25": "Cyclin-dependent kinase 5, with p25 (CDK5, Homo sapiens, UniProt Q00535)", "B1": "chain MSEILPYGEDKMGRFGADPEGSDLSFSCRLQDTNSFFAGNQAKRPPKLGQIGRAKRVVIEDDRIDDVLKGMGEKPPSGV", "note": "Compare with care: the assays were run in different laboratories. Several values in a cell are separate wells, animals, samples, runs or records. ± gives the spread as reported.", "chain of UniProt Q00535 (whole entry, looked up)": "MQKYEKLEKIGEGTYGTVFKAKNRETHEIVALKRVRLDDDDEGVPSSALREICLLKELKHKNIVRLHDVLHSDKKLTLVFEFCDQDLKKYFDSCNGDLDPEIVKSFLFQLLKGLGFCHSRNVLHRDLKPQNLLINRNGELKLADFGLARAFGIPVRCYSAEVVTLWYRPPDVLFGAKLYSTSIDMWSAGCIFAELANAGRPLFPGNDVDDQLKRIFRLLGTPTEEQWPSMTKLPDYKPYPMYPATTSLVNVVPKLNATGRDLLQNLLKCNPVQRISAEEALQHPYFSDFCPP", "chain of UniProt Q64663 (whole entry, unmodified, looked up)": "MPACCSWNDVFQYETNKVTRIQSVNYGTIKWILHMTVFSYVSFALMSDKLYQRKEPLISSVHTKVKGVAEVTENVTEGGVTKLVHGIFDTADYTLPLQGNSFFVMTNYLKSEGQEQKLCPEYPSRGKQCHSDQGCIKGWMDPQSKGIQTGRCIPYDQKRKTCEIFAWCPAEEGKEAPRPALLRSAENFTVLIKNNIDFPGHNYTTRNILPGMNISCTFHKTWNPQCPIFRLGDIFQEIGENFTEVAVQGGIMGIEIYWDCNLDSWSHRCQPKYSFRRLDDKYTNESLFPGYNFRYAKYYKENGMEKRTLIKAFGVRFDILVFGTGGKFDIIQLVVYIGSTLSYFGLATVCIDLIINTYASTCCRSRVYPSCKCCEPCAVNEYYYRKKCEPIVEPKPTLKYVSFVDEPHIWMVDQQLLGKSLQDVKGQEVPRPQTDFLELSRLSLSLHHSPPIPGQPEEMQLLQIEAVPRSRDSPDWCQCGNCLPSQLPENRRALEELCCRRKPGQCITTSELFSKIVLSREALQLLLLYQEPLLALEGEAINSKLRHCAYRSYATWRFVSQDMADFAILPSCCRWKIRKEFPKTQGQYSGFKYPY", "chain of UniProt Q9UQM7 (whole entry, unmodified, looked up)": "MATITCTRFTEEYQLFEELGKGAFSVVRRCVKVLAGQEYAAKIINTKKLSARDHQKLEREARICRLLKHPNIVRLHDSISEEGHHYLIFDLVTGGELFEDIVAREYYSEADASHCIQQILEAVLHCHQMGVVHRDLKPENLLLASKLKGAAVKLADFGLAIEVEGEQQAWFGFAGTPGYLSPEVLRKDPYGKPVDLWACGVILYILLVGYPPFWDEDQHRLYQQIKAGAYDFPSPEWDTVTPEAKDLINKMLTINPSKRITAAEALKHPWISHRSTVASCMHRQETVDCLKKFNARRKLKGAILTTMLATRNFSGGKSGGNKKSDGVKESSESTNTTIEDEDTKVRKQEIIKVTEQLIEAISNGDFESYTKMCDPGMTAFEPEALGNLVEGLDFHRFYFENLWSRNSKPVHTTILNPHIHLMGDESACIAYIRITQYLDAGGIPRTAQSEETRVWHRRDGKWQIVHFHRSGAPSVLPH", "chain of UniProt Q5ANA3 (whole entry, looked up)": "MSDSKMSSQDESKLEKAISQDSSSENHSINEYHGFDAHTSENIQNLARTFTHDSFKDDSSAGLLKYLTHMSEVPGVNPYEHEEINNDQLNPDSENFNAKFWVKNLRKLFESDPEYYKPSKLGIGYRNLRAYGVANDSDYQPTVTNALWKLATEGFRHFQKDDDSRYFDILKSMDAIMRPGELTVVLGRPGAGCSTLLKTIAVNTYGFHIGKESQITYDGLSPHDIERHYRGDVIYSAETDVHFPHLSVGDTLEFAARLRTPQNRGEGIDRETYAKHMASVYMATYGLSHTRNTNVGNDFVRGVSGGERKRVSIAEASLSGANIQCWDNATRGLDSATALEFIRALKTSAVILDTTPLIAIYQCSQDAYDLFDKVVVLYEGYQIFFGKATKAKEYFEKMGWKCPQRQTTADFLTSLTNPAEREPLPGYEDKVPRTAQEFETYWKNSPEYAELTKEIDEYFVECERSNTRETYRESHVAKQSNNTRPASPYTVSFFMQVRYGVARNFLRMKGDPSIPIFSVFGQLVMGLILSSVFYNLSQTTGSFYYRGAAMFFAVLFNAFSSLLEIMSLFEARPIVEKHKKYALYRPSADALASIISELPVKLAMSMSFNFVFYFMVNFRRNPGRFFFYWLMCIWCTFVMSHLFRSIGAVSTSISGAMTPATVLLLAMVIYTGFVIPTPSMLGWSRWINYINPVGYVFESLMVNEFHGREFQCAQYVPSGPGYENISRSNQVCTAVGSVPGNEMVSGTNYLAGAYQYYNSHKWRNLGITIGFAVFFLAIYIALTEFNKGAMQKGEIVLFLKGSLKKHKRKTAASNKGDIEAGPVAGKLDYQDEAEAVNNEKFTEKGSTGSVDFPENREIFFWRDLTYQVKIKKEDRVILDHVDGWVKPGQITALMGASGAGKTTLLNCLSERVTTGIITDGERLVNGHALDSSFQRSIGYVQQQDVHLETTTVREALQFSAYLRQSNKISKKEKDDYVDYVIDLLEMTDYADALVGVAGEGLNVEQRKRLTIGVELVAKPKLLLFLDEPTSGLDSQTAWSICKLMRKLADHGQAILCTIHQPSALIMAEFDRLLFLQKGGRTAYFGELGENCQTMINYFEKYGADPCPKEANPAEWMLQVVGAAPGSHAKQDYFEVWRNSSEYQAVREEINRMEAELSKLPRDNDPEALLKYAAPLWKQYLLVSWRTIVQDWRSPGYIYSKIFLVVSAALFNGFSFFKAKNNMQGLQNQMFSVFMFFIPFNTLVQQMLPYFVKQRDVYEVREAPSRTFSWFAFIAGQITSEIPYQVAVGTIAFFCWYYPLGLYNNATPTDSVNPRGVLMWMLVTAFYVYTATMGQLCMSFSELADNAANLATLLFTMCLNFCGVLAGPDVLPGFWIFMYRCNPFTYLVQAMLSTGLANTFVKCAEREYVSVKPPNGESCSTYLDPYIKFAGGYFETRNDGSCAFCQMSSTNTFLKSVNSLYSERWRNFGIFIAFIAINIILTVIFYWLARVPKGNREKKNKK", "chain of UniProt P26368 (whole entry, looked up)": "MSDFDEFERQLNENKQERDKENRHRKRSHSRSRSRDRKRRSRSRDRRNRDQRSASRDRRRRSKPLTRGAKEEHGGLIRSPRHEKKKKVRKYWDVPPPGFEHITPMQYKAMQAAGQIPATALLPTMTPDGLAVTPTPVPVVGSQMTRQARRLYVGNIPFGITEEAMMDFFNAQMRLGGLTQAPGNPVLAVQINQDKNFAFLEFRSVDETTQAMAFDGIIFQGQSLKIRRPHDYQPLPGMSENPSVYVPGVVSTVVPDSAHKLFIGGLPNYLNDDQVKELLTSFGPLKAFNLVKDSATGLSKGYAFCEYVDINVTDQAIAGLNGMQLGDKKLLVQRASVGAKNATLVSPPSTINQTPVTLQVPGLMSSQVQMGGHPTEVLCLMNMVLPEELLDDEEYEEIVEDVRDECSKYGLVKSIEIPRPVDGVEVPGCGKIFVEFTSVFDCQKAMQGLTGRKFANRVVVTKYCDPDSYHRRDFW"}
{"Substance": "human ME2 Q101T", "assay": "enzyme activity, NADH absorbance", "setting": "with fumarate 3 mM, added: L-malate varied", "endpoint": "Hill coefficient", "result": "1.01 ± 0.08"}
{"Substance": "KEAFWDRCLSVIQLMSSKMLQINA", "target or system": "CDK5 with p25", "assay": "phosphotransferase activity, radiometric", "test system": "peptide", "setting": "concentration not given, 10% DMSO, added: histone substrate", "how to read": "reference: p5-WT peptide", "endpoint": "activity change", "result": "27%"}
{"Substance": "human ME2 I58F", "assay": "enzyme activity, activator, NADH absorbance", "test system": "recombinant enzyme", "setting": "range over 0 to 5 mM, pH 7.4", "how to read": "reference: wild type", "endpoint": "activation fold", "result": 0.9}
{"Substance": "11-deoxycorticosterone", "target or system": "CYP11B2 (human)", "assay": "substrate binding, stopped-flow kinetic modelling", "setting": "4-state branched induced-fit model, added: no adrenodoxin", "endpoint": "rate constant k-2", "result": "30.8 min⁻¹"}
{"Substance": "KEAFWDRCLSVINLMSSKMLQINS", "target or system": "CDK5 with p25", "assay": "phosphotransferase activity, radiometric", "test system": "peptide", "setting": "concentration not given, 10% DMSO, added: histone substrate", "how to read": "reference: p5-WT peptide", "endpoint": "activity change", "result": "9%"}
{"Substance": "human ME2 R91A", "assay": "enzyme activity, NADH absorbance", "setting": "with fumarate 3 mM, added: L-malate varied", "endpoint": "Hill coefficient", "result": "1 ± 0.01"}
{"Substance": "H-KQGTGKVQK-OH", "target or system": "HeLa nuclei", "assay": "peripheral DNA signal, confocal microscopy, PI staining", "test system": "peptide", "setting": "mean of nuclei, added: MNase 10-2 U/mL", "how to read": "reference: 0 U/mL MNase", "endpoint": "normalised fluorescence intensity", "result": 0.326}
{"Substance": "KEAFWDRCLSVINLMSSKALQINA", "target or system": "CDK5 with p25", "assay": "phosphotransferase activity, radiometric", "test system": "peptide", "setting": "concentration not given, 10% DMSO, added: histone substrate", "how to read": "reference: p5-WT peptide", "endpoint": "activity change", "result": "40%"}
{"Substance": "B1", "target or system": "CAMK2A (Homo sapiens, UniProt Q9UQM7, D135N/W214A)", "assay": "binding, isothermal titration calorimetry", "endpoint": "ΔH", "result": "-6.02 kcal/mol and -5.95 kcal/mol"}
{"Substance": "spindlin-1 (human)", "target or system": "PP6C (human)", "assay": "co-immunoprecipitation, IP-MS", "test system": "CYB5R4 knockout cells", "setting": "concentration not given", "how to read": "reference: CYB5R4 knockout over parental", "endpoint": "log2 fold change", "result": -0.27}
{"Substance": "colistin", "target or system": "Klebsiella pneumoniae", "assay": "broth microdilution", "test system": "clinical isolate RKI-No_107/15", "endpoint": "MIC", "result": "≤ 0.5 µg/mL"}
{"Substance": "human ME2 K81R", "assay": "enzyme activity, NADH absorbance", "setting": "with fumarate 3 mM, added: L-malate varied", "endpoint": "Hill coefficient", "result": "1.04 ± 0.02"}
{"Substance": "AGUGGAGAACUUUUCUGCCUCUG (ssRNA)", "target or system": "U2AF2 148-342 (Homo sapiens, UniProt P26368)", "assay": "MST", "test system": "RNA", "endpoint": "Kd", "result": "29.7 ± 6.55 µM"}
{"Substance": "Malic enzyme 2 S106K (human)", "assay": "enzyme activity, activator, NADH absorbance", "test system": "recombinant enzyme", "setting": "range over 0 to 5 mM, pH 7.4", "how to read": "reference: wild type", "endpoint": "activation fold", "result": 1}
{"Substance": "KEAFWQRCLSVINLMSSKMLQINA", "target or system": "CDK5 with p25", "assay": "phosphotransferase activity, radiometric", "test system": "peptide", "setting": "concentration not given, 10% DMSO, added: histone substrate", "how to read": "reference: p5-WT peptide", "endpoint": "activity change", "result": "25%"}
{"Substance": "milbemycin oxime", "target or system": "CDR1 (Candida albicans, UniProt Q5ANA3)", "assay": "binding, microscale thermophoresis", "setting": "5 µM", "endpoint": "fraction bound", "result": "102%"}
{"Substance": "KEAFWDRCVSVINLMSSKMLQINA", "target or system": "CDK5 with p25", "assay": "phosphotransferase activity, radiometric", "test system": "peptide", "setting": "concentration not given, 10% DMSO, added: histone substrate", "how to read": "reference: p5-WT peptide", "endpoint": "activity change", "result": "50%"}
{"Substance": "human Ku80", "target or system": "PP6C (human)", "assay": "co-immunoprecipitation, IP-MS", "test system": "CYB5R4 knockout cells", "setting": "concentration not given", "how to read": "reference: CYB5R4 knockout over parental", "endpoint": "log2 fold change", "result": -0.5}
{"Substance": "BzATP", "target or system": "P2X purinoceptor 7 (P2rx7, Rattus norvegicus, UniProt Q64663, I214A/Q143A)", "assay": "ion current, agonist, two-electrode voltage clamp", "test system": "Xenopus oocytes", "setting": "900 µM", "endpoint": "normalized current", "result": "0.99 and 0.97 and 0.9"}
{"note": "Repeated from above:"}
{"Substance": "KEAFWDRCLSVIQLMSSKMLQINA", "target or system": "CDK5 with p25", "assay": "phosphotransferase activity, radiometric", "test system": "peptide", "setting": "concentration not given, 10% DMSO, added: histone substrate", "how to read": "reference: p5-WT peptide", "endpoint": "activity change", "result": "27%"}
{"Substance": "11-deoxycorticosterone", "target or system": "CYP11B2 (human)", "assay": "substrate binding, stopped-flow kinetic modelling", "setting": "4-state branched induced-fit model, added: no adrenodoxin", "endpoint": "rate constant k-2", "result": "30.8 min⁻¹"}
